Measured values collected from several papers.
Values joined by “and” are separate records of one study, mostly repeats; a detail may differ. Numbers after ± are the reported error. In brackets after ≈: the same amount, converted by molar mass.

SMILES	organism	assay	system	setting	scale	endpoint	result
CC(C)C(=O)Nc1ncc(Cc2ccc3ccccc3c2)s1	Histoplasma capsulatum	microbial growth				MIC	20 µM (≈ 6.21 µg/mL)
COc1ccc2cc(-c3cc(-c4cc(Cl)cc(Cl)c4)nn3[C@@H](C)c3ccc(C(=O)NCCC(=O)O)cc3)ccc2c1	SARS-CoV-2	viral replication, high-content imaging screen		cell-based		EC50	> 100 µM
CCc1c(C(=O)C(N)=O)c2c(OCC(=O)O)cccc2n1Cc1ccccc1	Daboia russelii		mouse	intravenous, 120 µg, up to 24 h, given 30 min after venom, with: northern venom intraperitoneal		time of death	> 24 h
CCN(CC)CCNC(=O)c1[nH]c2ccccc2c1Sc1ccc(Cl)cc1	SARS-CoV-2	cytopathic effect	USA_WA1/2020	round 2, 5-point		efficacy	115%
CC(C)N1CCN(c2ccc(OCC3COC(Cn4cncn4)(c4ccc(Cl)cc4Cl)O3)cc2)CC1 (centres unmarked)	SARS-CoV-2	viral replication, high-content imaging screen		cell-based		EC50	> 12.6 µM
CC(Nc1nc(N2CCN(C)CC2)nc2ccccc12)c1ccccc1 (centres unmarked)	SARS-CoV-2	cytopathic effect, cell-based CPE	USA_WA1/2020	round 2, 5-point dilution		maximal response	109%
CC(C)C[C@@H]1NC(=O)c2coc(n2)[C@H](Cc2ccccc2)NC(=O)CN(C(=O)CN(C)C2CCCC2)CCNC(=O)c2csc1n2	Lassa mammarenavirus	viral replication	Huh-7	10 µM, 72 h		remaining activity	52%
CC(C)(C)[C@H](NC(=O)C(F)(F)F)C(=O)N1C[C@H]2[C@@H]([C@H]1C(=O)N[C@H](C#N)C[C@@H]1CCNC1=O)C2(C)C	SARS-CoV-2	viral replication, infectious virus	Vero E6	0.25 µM		inhibition	100%
Clc1ccccc1C1(c2ccnc(-c3ccccc3)n2)CCNCC1	SARS-CoV-2	cytopathic effect	USA_WA1/2020	round 1, 5-point		efficacy	109%
CNC(=O)[C@@H](NC(=O)[C@H](CC(C)C)[C@H](O)C(=O)NO)C(C)(C)C	Daboia russelii		mouse	intravenous, 60 µg/mouse, 24 h, drug mixture, with: KA venom 2.5 x LD50 preincubated		survival	100%
CCOc1ccc(C(=O)Nc2ccc(N3CCCN(C(=O)c4cnccn4)CC3)nc2)cc1	Mycobacterium tuberculosis	bacterial growth	H37Ra-lux	168 h		IC90	> 64 µM
Nc1ncnc2c([C@@H]3N[C@H](CO)[C@@H](O)[C@H]3O)c[nH]c12	Marburg virus	antibody staining	HeLa, Musoke	6.3 µM		antigen-positive cells	1.4% and 10.6%
COc1ccc(C[C@@H]2c3cc(Oc4cc(C[C@@H]5c6cc(O)c(OC)cc6CCN5C)ccc4O)c(OC)cc3CCN2C)cc1	Severe acute respiratory syndrome coronavirus 2	cytopathic effect, inhibitor	Vero C1008	6.25 µM		inhibition	0%
O=C1c2c(O)c(=O)ccn2N([C@@H]2c3ccccc3SCc3c2ccc(F)c3F)[C@@H]2COCCN12	Influenza A virus	viral replication	A(H9N2) A/quail/Bangladesh/30835/2016	mean		EC50	0.00036 ± 6e-05 µM
COc1ccc(C#Cc2ccccc2)c(CCC(C)N(C)CCc2ccc(OC)c(OC)c2)c1 (centres unmarked)	SARS-CoV-2	viral replication, GFP plate reader screen	BetaCov/Belgium/GHB-03021/2020	cell-based		EC50	4.27 µM
Nc1nccc(N2CCOC(CC(c3ccccc3)c3ccccc3)C2)n1 (centres unmarked)	Lassa mammarenavirus	viral replication	Huh-7	10 µM, 72 h		remaining activity	46%
CCN(CC)CCCNC(=O)c1ccc(-c2nc(CN3CCc4ccccc43)c(C)o2)cc1	SARS-CoV-2	cytopathic effect, cell-based CPE	USA_WA1/2020			AC50	14.1 µM
CN1CCN(CCCN2c3ccccc3Sc3ccccc32)CC1	SARS-CoV-2	viral replication, GFP plate reader screen		cell-based		EC50	14 µM
CCCCN(CCCNC(=O)c1cc(Nc2ccc(OC)c(OC)c2)nc2ccccc12)Cc1ccccc1	SARS-CoV-2	cytopathic effect	USA_WA1/2020	retest, 8-point, duplicates		efficacy	11.9%

SMILES	organism	assay	system	setting	scale	endpoint	result
Cc1ccc(-c2nc3c(nc2-c2ccc(C)cc2)N(CCCCCCC(=O)O)CCC3)cc1	SARS-CoV-2	viral replication, GFP plate reader screen	BetaCov/Belgium/GHB-03021/2020	cell-based		EC50	17.4 µM
O=c1nc(NO)ccn1[C@@H]1O[C@H](CO)[C@@H](O)[C@H]1O	SARS-CoV-2 Washington strain	viral replication, qRT-PCR	Calu-3			EC90	1.8 ± 0.7 µM
CCc1ccc(Sc2cc(C(=O)NCCCN3CCC(C)CC3)c3ccccc3n2)cc1	SARS-CoV-2	cytopathic effect, cell-based CPE	USA_WA1/2020			AC50	7.94 µM
CN1CCN(C(=O)c2cc3cc(Cl)ccc3[nH]2)CC1	Marburg virus	pseudovirus entry	A549		reference: CC50 over IC50	selectivity index	6.9
O=C(/C=C/c1ccc(O)c(O)c1/C=C/c1ccc(O)c(O)c1)O[C@H](Cc1ccc(O)c(O)c1)C(=O)O	SARS-CoV-2	cytopathic effect	Vero E6	1.562 µM, replicate run		mean inhibition	0%
CN1CCN2CCN(c3nc(N)nc4[nH]cnc34)CC2C1 (centres unmarked)	Lassa mammarenavirus	viral replication	Huh-7	10 µM, 72 h		remaining activity	54%
COc1cc2c3cc1Oc1cc(ccc1O)CC1c4c(cc(OC)c(O)c4Oc4ccc(cc4)CC3N(C)CC2)CCN1C (centres unmarked)	SARS-CoV-2	viral replication, high-content imaging screen		cell-based		EC50	5.37 µM
Cc1cccn2c(CC(=O)NCc3cc(-c4ccco4)on3)cnc12	Lassa mammarenavirus	viral replication	Huh-7	10 µM, 72 h		remaining activity	56%
O=C(NO)c1ccc(C2=Nc3ccccc3Oc3ccccc32)cc1	SARS-CoV-2	viral replication, GFP plate reader screen	BetaCov/Belgium/GHB-03021/2020	cell-based		EC50	> 100 µM
O=C(c1cnn[nH]1)N1CCc2[nH]nc(C3CCC3)c2C1	Lassa mammarenavirus	viral replication	Huh-7	10 µM, 72 h		remaining activity	43%
CCOc1ccc(CN2CCN(Cc3ccc4c(c3)c3ccccc3n4CC)CC2)cc1	SARS-CoV-2	cytopathic effect, cell-based CPE	USA_WA1/2020	round 2, 5-point dilution		AC50	11.2 µM
Cc1nc[nH]c1CN1CCc2cc3ccc2C1c1cccc(c1)OCCCNC(=O)c1cc(ccc1O)O3 (centres unmarked)	Lassa mammarenavirus	viral replication	Huh-7	10 µM, 72 h		remaining activity	51%
O=C(Nc1ccc(N2CCN(C(=O)c3cnccn3)CC2)nc1)c1ccc(Br)cc1Cl	Mycobacterium tuberculosis	bacterial growth	H37Ra-lux	168 h		IC90	4 µM
CC(C)(C)c1ccc(CN2CCN(C(c3ccccc3)c3ccc(Cl)cc3)CC2)cc1 (centres unmarked)	Marburg virus	pseudovirus entry	A549		reference: CC50 over IC50	selectivity index	4
Cc1nc2n(n1)CC(=O)N[C@@H](C(C)C)CN(C(=O)c1n[nH]c(=O)[nH]1)CC(=O)N[C@@H](CC(C)C)c1nc(cs1)C(=O)N[C@H]2Cc1ccccc1	Lassa mammarenavirus	viral replication	Huh-7	10 µM, 72 h		remaining activity	107%
Cc1cc2cc(Oc3ccnc(Nc4cccc(CS(=O)(=O)NCCN(C)C)c4)n3)ccc2[nH]1	SARS-CoV-2	viral replication, high-content imaging screen		cell-based		EC50	> 50.1 µM
CCc1ccc(Sc2cc(C(=O)NCCCN3CCCC(C)C3)c3ccccc3n2)cc1 (centres unmarked)	SARS-CoV-2	cytopathic effect	USA_WA1/2020	retest 8-point		efficacy	86.6%
Fc1ccc2[nH]c(C3CCCCN3Cc3nnc(-c4ccco4)o3)nc2c1 (centres unmarked)	Lassa mammarenavirus	viral replication	Huh-7	10 µM, 72 h		remaining activity	40%
CCCCCCCCCCCCN(C)C(=O)CP(=O)(O)O	Bacillus anthracis		2 strains			MIC90	0.097 µg/mL (≈ 0.302 µM)

Repeated from above:
SMILES	organism	assay	system	setting	scale	endpoint	result
CCOc1ccc(C(=O)Nc2ccc(N3CCCN(C(=O)c4cnccn4)CC3)nc2)cc1	Mycobacterium tuberculosis	bacterial growth	H37Ra-lux	168 h		IC90	> 64 µM
CCc1ccc(Sc2cc(C(=O)NCCCN3CCC(C)CC3)c3ccccc3n2)cc1	SARS-CoV-2	cytopathic effect, cell-based CPE	USA_WA1/2020			AC50	7.94 µM
CCc1c(C(=O)C(N)=O)c2c(OCC(=O)O)cccc2n1Cc1ccccc1	Daboia russelii		mouse	intravenous, 120 µg, up to 24 h, given 30 min after venom, with: northern venom intraperitoneal		time of death	> 24 h
O=C(c1cnn[nH]1)N1CCc2[nH]nc(C3CCC3)c2C1	Lassa mammarenavirus	viral replication	Huh-7	10 µM, 72 h		remaining activity	43%
Cc1nc[nH]c1CN1CCc2cc3ccc2C1c1cccc(c1)OCCCNC(=O)c1cc(ccc1O)O3 (centres unmarked)	Lassa mammarenavirus	viral replication	Huh-7	10 µM, 72 h		remaining activity	51%
